Experimental data from different studies.
Compare with care: the assays were run in different laboratories. Several values in a cell are separate wells, animals, samples, runs or records. ± marks the error that the study gave.
SLC6A9: Sodium- and chloride-dependent glycine transporter 1 (SLC6A9, Homo sapiens, UniProt P48067)
Gria2/Glutamate receptor 3: Gria2/Glutamate receptor 3 (Rattus norvegicus, UniProt P19491+P19492)
USP14: Ubiquitin carboxyl-terminal hydrolase 14 (USP14, Homo sapiens, UniProt P54578)

For `CC[C@H](C)[C@@H]1NC(=O)[C@H](Cc2ccccc2)NC(=O)[C@H](CCC(=O)O)NC(=O)[C@H](CCCNC(=N)N)NC(=O)CNC(=O)[C@@H](NC(=O)[C@H](CC(C)C)NC(=O)[C@H](CCCNC(=N)N)NC(=O)[C@@H](NC(=O)CNC(=O)[C@H](Cc2ccc(O)cc2)NC(=O)[C@@H]2CCCN2C(=O)[C@H](C)NC(=O)[C@H](C)NC(=O)[C@@H](N)CCCNC(=N)N)C(C)C)CSSC[C@@H]2NC(=O)[C@@H](NC(=O)[C@H](CO)NC(=O)[C@H](CO)NC(=O)[C@H](CO)NC(=O)[C@H](CC(C)C)NC(=O)CNC(=O)[C@H](C)NC(=O)[C@H](CC(C)C)NC(=O)[C@@H](NC(=O)[C@@H](N)CC(=O)O)C(C)C)CSSC[C@H](NC(=O)CNC(=O)[C@H](Cc3c[nH]c4ccccc34)NC(=O)[C@H](CCCCN)NC2=O)C(=O)N[C@@H](CO)C(=O)N[C@@H](CCCCN)C(=O)N[C@@H](CO)C(=O)N[C@@H](CCC(=O)O)C(=O)N[C@@H]([C@@H](C)CC)C(=O)N[C@@H](CO)C(=O)N[C@@H](CO)C(=O)N[C@@H](CC(C)C)C(=O)N[C@H](C(=O)O)CSSC[C@@H](C(=O)NCC(=O)NCC(=O)N[C@@H](CO)C(=O)N[C@@H](CCCNC(=N)N)C(=O)N[C@@H](Cc2c[nH]c3ccccc23)C(=O)O)NC(=O)[C@H]([C@@H](C)O)NC(=O)[C@H](Cc2ccccc2)NC(=O)[C@H]([C@@H](C)CC)NC(=O)[C@H](C(C)C)NC(=O)[C@H](C)NC(=O)[C@H](CCCNC(=N)N)NC1=O`, “change in Emax” read -12.8% and -4.18% and -5.65% and -16.4% (RXFP4 (Homo sapiens, UniProt Q8TDU9, Q205A); agonist; Q205A mutant; baseline: wild type).
`COc1ccc(C2(O)CC(C(=O)O)N(CCOC(c3ccc(OC)cc3)(c3ccc(OC)cc3)c3ccc(OC)cc3)C2)cc1` (stereo not drawn) gave a remaining signal of 42% (SLC6A9; cell-free assay; 10 µM).
For `O=C(O)Cc1cc2c(cc1C(=O)c1cccc(I)c1)OCO2`, “deactivation time constant” read 3.7 ± 0.2 ms (Gria2/Glutamate receptor 3; whole-cell patch clamp; HEK-293T; concentration not given, added: glutamate).
`CCCCCCCCCCCCCCCC(=O)NCCCC[C@H](NC(=O)[C@H](CCC(=O)O)NC(=O)[C@H](Cc1ccc(O)cc1)NC(=O)[C@H](CCC(=O)O)NC(=O)COCC(=O)NCCCOCCOCCOCCCNC(=O)[C@H](Cc1c[nH]c2ccccc12)NC(=O)[C@H](CCCCN)NC(=O)[C@H](C)NC(=O)[C@H](CCCCNC(=N)N)NC(=O)[C@H](CCC(N)=O)NC(=O)[C@H](Cc1c[nH]cn1)NC(=O)[C@H](CCSC)NC(=O)[C@H](CC(C)C)NC(=O)[C@H](CCC(N)=O)NC(=O)[C@@H](NC(=O)[C@H](CCC(=O)O)NC(=O)C(C)(C)NC(=O)[C@@H](NC(=O)C(C)(C)N)C(C)C)[C@@H](C)CC)C(=O)N[C@@H](CCC(=O)O)C(=O)N[C@@H](Cc1ccc(O)cc1)C(=O)N[C@@H](CCC(=O)O)C(N)=O`: “cAMP luminescence AUC” 180 a.u. (PTH1R (Homo sapiens, UniProt Q03431); agonist; Saos-2 with cAMP reporter; 100 pM, 90 min, washout after 30 min ligand; higher = more cAMP).
With `CC(=O)N1CCN(c2nc(N)c3c(N)nc4c(c3c2C#N)CC(=O)N4C)CC1` the inhibition was 3% (USP14; enzyme activity, inhibitor; 17 µM).
`O=C(O)Cc1cc2c(cc1C(=O)c1ccc(Cl)cc1Cl)OCO2`: “deactivation time constant” 10.4 ± 0.6 ms (Gria2/Glutamate receptor 3; whole-cell patch clamp; HEK-293T; concentration not given, added: glutamate).
`Cn1c(=O)n(C2CCC(=O)NC2=O)c2ccc(C3CCN(CC(=O)Nc4cccc(CS(=O)(=O)N5CC[C@H](Nc6cccc(-c7sc(C(=O)O)c(OCC(=O)O)c7Cl)c6)CC5(C)C)c4)CC3)cc21` (stereo partly drawn) gave a remaining protein of 1.19% and 7% (Tyrosine-protein phosphatase non-receptor type 2 (Ptpn2, Mus musculus, UniProt Q06180); degrader, Western blot; B16-F10 cells; 10 µM, added: bortezomib 10 µM pre-treatment; baseline: untreated).
`O=C(O)Cc1cc2c(cc1C(=O)c1ccccc1Cl)OCO2` has a current amplitude of 73 ± 4 pA (Gria2/Glutamate receptor 3; glutamate-evoked current, whole-cell patch clamp; HEK-293T; concentration not given, pH 7.4, holding potential -60 mV, added: 10 mM glutamate).
With `CC(C)C[C@@H]1NC(=O)CN(C)C(=O)[C@H](Cc2c[nH]c3ccccc23)NC(=O)[C@H](CCC(=O)O)NC(=O)[C@H](Cc2ccccc2)N(C)C(=O)[C@H](Cc2ccccc2)NC(=O)CSC[C@@H](C(N)=O)NC(=O)[C@H](CCCCN)NC(=O)[C@H](C(C)C)NC(=O)[C@H](Cc2ccc(O)cc2)NC(=O)[C@H](Cc2ccc(O)cc2)NC(=O)[C@H](C(C)C)NC(=O)[C@H](Cc2ccccc2)N(C)C(=O)[C@H](CCCNC(=N)N)NC1=O` the ΔTm was 0 °C (AT-rich interactive domain-containing protein 1B (ARID1B, Homo sapiens, UniProt Q8NFD5, A2203Q); differential scanning fluorimetry; 5 µM, A2120Q mutant).
`CCCCCC(O)/C=C/C=O` (stereo not drawn): “probe labelling ratio” 0.66 (RNA-binding protein RO60 (Homo sapiens, UniProt P10155); acylphosphate-ATP probe SILAC-ABPP, item: TROVE2; ZAK-transfected HEK293T; 100 µM, added: acylphosphate-ATP probe; baseline: DMSO over compound-treated).
`CCCCCCCCCCCCCCCC(=O)OCC(CSC[C@H](N)C(=O)N[C@@H](CO)C(=O)N[C@@H](CCCCN)C(=O)N[C@@H](CCCCN)C(=O)N[C@@H](CCCCN)C(=O)N[C@@H](CCCCN)C(=O)NCCCCCC(=O)N[C@@H](CCCCN)C(=O)N[C@@H](CC(C)C)C(=O)N[C@H](C(=O)N[C@@H](Cc1ccccc1)C(=O)N[C@@H](Cc1ccccc1)C(=O)N[C@@H](Cc1ccc2ccccc2c1)C(=O)O)C(C)C)OC(=O)CCCCCCCCCCCCCCC` (stereo partly drawn) has a fibril diameter of 9.71 nm (Amyloid-beta precursor protein, fibrillar amyloid-beta (APP, Homo sapiens, UniProt P05067); TEM; 2.0 eq, 28 h, fibril 2, added: APP 20 µM).
The apparent Vmax of `Cc1ccccc1-c1cc(CN2c3ccccc3C=Cc3ccccc32)on1` is reported as 32 µmol/min (PPO3 (Agaricus bisporus, UniProt C7FF04); enzyme activity, inhibitor; concentration not given).
For `C=CC(=O)N1C[C@H](C)N(c2nc(OC[C@@]34CCCN3C[C@H](F)C4)nc3c(F)c(-c4ccc(F)c5sc(N)c(C#N)c45)c(C(F)(F)F)cc23)C[C@H]1C`, “dissociation rate constant koff” read 0.000581 ± 9.4e-05 s⁻¹ (GTPase KRas, GDP-bound (KRAS, Homo sapiens, UniProt P01116, Q61R); SPR).
For `O=C1C(=CO)c2ccccc2-c2ccccc21`, the inhibition was 100% (USP14; enzyme activity, inhibitor; 17 µM).
The remaining signal of `O=C(NC1CCNCC1)c1cccc(F)c1` is reported as 105% (SLC6A9; cell-free assay; 1 µM).
With `Cc1cc(=O)oc2cc(NC(=O)CCCCCCC(=O)NO)ccc12` the TΔS° was 3.52 kcal/mol (HDAC8 (Homo sapiens, UniProt Q9BY41); ITC; Tris-HCl buffer; 288 K).
For `CC(C)Oc1cc(Cl)ccc1CNc1cc(-c2ccccc2)nc2ncnn12`, the cAMP luminescence was 28800 a.u. and 25400 a.u. and 37700 a.u. and 32800 a.u. and 31900 a.u. (GPR3 (Homo sapiens, UniProt P46089, Q215A); cAMP level, cAMP GloSensor; 100 nM; higher = more cAMP).
`CC[C@H](C)[C@H](NC(=O)[C@@H](NC(=O)[C@@H](NC(=O)[C@@H](NC(=O)[C@H](CCCNC(=N)N)NC(=O)[C@H](CCC(=O)O)NC(=O)[C@H](CCC(=O)O)NC(=O)[C@H](C)NC(=O)[C@H](CCC(=O)O)NC(=O)CNC(=O)[C@H](C)NC(=O)CN)C(C)C)C(C)C)C(C)C)C(=O)N[C@@H](CO)C(=O)N[C@@H](CO)C(=O)N[C@@H](CO)C(=O)N[C@@H](CCC(=O)O)C(=O)N[C@@H](CC(=O)O)C(=O)N[C@@H](CO)C(=O)N[C@@H](CC(=O)O)C(=O)N[C@@H](C)C(=O)N[C@@H](CCC(=O)O)C(=O)N[C@@H](CC(N)=O)C(=O)N[C@@H](CO)C(=O)N[C@@H](CO)C(=O)N[C@@H](CO)C(=O)N[C@@H](CCCNC(=N)N)C(=O)N[C@@H](Cc1ccc(O)cc1)C(=O)O` — result for “enthalpy change (ΔH)”: 2.12 ± 0.22 kcal/mol (Small ubiquitin-related modifier 1, residues 17-97 (Homo sapiens, UniProt P63165, C52A); isothermal titration calorimetry; concentration not given, pH 7.4, N-terminally truncated SUMO1).
`CCCC[C@H](NC(=O)[C@H](CCC(N)=O)NC(=O)[C@H](CCC(=O)O)NC(=O)[C@@H]1CCCN1C(=O)[C@@H](NC(=O)[C@H](C)NC(=O)[C@H](CC(N)=O)NC(=O)[C@H](CC(=O)O)NC(=O)CNC(=O)[C@@H]1CCCN1C(=O)[C@H](Cc1ccc(O)cc1)NC(=O)[C@@H](NC(=O)[C@@H]1CCCN1C(=O)[C@H](CCC(=O)O)NC(=O)[C@H](CC(C)C)NC(=O)[C@@H]1CCCN1C(=O)[C@H](C)N)C(C)C)[C@@H](C)O)C(=O)N[C@@H](C)C(=O)N[C@@H](CCC(N)=O)C(=O)N[C@@H](Cc1ccc(O)cc1)C(=O)N[C@@H](C)C(=O)N[C@@H](CCCCNC(=O)c1ccc2c(c1)C(=O)OC21c2ccc(N(C)C)cc2Oc2cc(N(C)C)ccc21)C(=O)N[C@@H](CC(=O)O)C(=O)N[C@@H](CC(C)C)C(=O)N[C@@H](CCCNC(=N)N)C(=O)N[C@@H](CCCNC(=N)N)C(=O)N[C@@H](Cc1ccc(O)cc1)C(=O)N[C@H](C(=O)N[C@@H](CC(N)=O)C(=O)N[C@@H](CCCC)C(=O)N[C@@H](CC(C)C)C(=O)N[C@H](C(=O)N[C@@H](CCCNC(=N)N)C(=O)N1CCC[C@H]1C(=O)N[C@@H](CCCNC(=N)N)C(=O)N[C@@H](Cc1ccc(O)cc1)C(N)=O)[C@@H](C)O)[C@@H](C)CC` has a BRETmax of 0.043 ± 0.0008 (NPY4R (Homo sapiens, UniProt P50391, Q121A); NanoBRET binding; Nluc-tagged receptor Q121A, unit not given; net BRET ratio).
`N#Cc1ccc(N2C(=O)c3ccccc3C2=O)cc1` has an inhibition of 30% (USP14; enzyme activity, inhibitor; 17 µM).
`C#CCN1CCN(c2nc(N3CCC(CCOc4cc(-c5scnc5C)ccc4CNC(=O)[C@@H]4C[C@@H](O)CN4C(=O)[C@@H](NC(=O)C4(F)CC4)C(C)(C)C)CC3)nc(N3CCN(C(=O)C4CC4)C3)n2)CC1=O` — result for “ternary complex formation”: 0% (VHL/BRD9, with Elongin B/C (Homo sapiens, UniProt P40337+Q9H8M2); native mass spectrometry; 5 µM, added: BRD9 and VCB at 5 µM; baseline: unbound BRD9).
For `CCCCCCCO[C@H]1[C@H](OC)O[C@H](CO)[C@@H](O)[C@H](O)[C@@H]1O`, “enthalpy change (ΔH obs)” read -27.9 kJ/mol (Type 1 fimbrin D-mannose specific adhesin, lectin domain (fimH, Escherichia coli K-12, UniProt P08191); isothermal titration calorimetry; concentration not given, 25 °C).
`C#CCOC(=O)[C@]1(C)C=C(C(=O)Nc2cccc(C(=O)Nc3ccc(C)c(Nc4nccc(-c5cccnc5)n4)c3)c2)C(=O)CC1` has a remaining activity of 0.97 (MAPK9 (Homo sapiens, UniProt P45984); enzyme activity, inhibitor; 2.788e-05 µM, unit not given; baseline: vehicle).
With `C=CC(=O)N1CCCC(n2c(=O)c3ncccc3n(Cc3ccc(Oc4ccccc4)cc3)c2=O)C1` (stereo not drawn) the melting temperature was 56.9 °C and 56.6 °C (PCNA (Homo sapiens, UniProt P12004); thermal proteome profiling; cell proteome; treated).
For `COc1cc(Nc2nc(C)cc(-c3cnn4nc(OC)ccc34)n2)cc(C(F)(F)F)c1`, the remaining activity was 85% (PIK3CA (Homo sapiens, UniProt P42336, H1047Y); inhibitor; 1 µM; baseline: control).
The remaining activity of `COC(=O)[C@@]1(C)C=C(C(=O)Nc2cccc(C(=O)Nc3ccc(Nc4nccc(-c5cccnc5)n4)c(C)c3)c2)C(=O)CC1` is reported as 0.96 and 1 and 1.01 (MAPK1 (Homo sapiens, UniProt P28482); enzyme activity, inhibitor; 0.02032 µM, unit not given; baseline: vehicle).
For `Cc1ccc(C2CCN(C3Cc4ccccc4CC3O)CC2)cc1` (racemic), the selectivity ratio was 10.4 (SIGMAR1 (Homo sapiens, UniProt Q99720); rat liver (sigma2), human sigma1; baseline: Ki sigma2 over Ki sigma1).
